Assay results pooled from the literature.
Each line is one published result; not all experiments were run side by side. Several values in a cell are separate wells, animals, samples, runs or records. Numbers after ± are the reported error.

With `CN(C)C(=O)Oc1cccc([N+](C)(C)C)c1` the train-of-four ratio was 4.59 (neuromuscular block reversal; rat; dose not given, 1.5 (unit not given), with: cisatracurium; relative to: T1 twitch).
`COc1cc2cc(-c3ccc(CC(=O)Nc4cc(C(C)(C)C(F)(F)F)no4)cn3)cnc2cc1OC`: “best overall response CR” 0% (RECIST v1.1; human other RET-altered solid tumours; 75 mg, phase I).
Under “pathway activation z-score”, `Cn1cc(Nc2nccc(-c3ccc4c(c3)CN(C3COC3)CC[C@H]4NC(=O)c3cn(C(C)(C)C)nn3)n2)cn1` is recorded as 3.71 (item: CXCR4 signalling; mouse splenic B cells, mouse; 30 mg/kg, IgD-activated B cells in vivo; relative to: vehicle, direction not given).
`O=C(NOC1Cc2ccccc2C1)c1c(-c2ccc3ccccc3c2)nc2occn12` — result for mRNA level: “increased” (inducer, item: Cyp2b10; hCAR transgenic male mice, liver; intraperitoneal, 10 mg/kg, 24 h).
For `Cc1cc(F)cc2c(CCC(=O)N[C@@H]3C(=O)NC[C@H]3O)c(-c3ccc(F)cc3)[nH]c12`, “urine albumin/creatinine ratio” read 157 µg/mg and 124 µg/mg and 77 µg/mg and 1110 µg/mg and 593 µg/mg (APOL1 G2 mice, IFNγ-induced; 30 mg/kg twice daily, day 12).
`CC(C)[C@H](C(=O)Nc1ccc(C(=O)NO)cc1)c1ccccc1` gave a tumour volume of 8.4 cm3 (volumetric MRI; human, left cistern meningioma; dose not given, day 23).
`Cc1cnc(N2CC3(CCOCC3)C2)c(C(=O)Nc2ccc(C(=O)N3CCc4cc(C(=O)Nc5c(C)cccc5F)sc4-c4ccccc43)cc2)c1` gave an inhibition of 16% (item: CRP; human RSV infection, plasma; dose not given, AUC, ITT-IS population; relative to: placebo).
For `CC#CC(=O)N[C@H]1CCCN(c2c(F)cc(C(N)=O)c3[nH]c(C)c(C)c23)C1`, “change from baseline in serum IgM” read -8.1% (healthy volunteers, multiple ascending dose, serum; 0.3 mg once daily, day 21).
`O=C(/C=C/c1ccc(O)c(O)c1/C=C/c1ccc(O)c(O)c1)O[C@H](Cc1ccc(O)c(O)c1)C(=O)O` gave a CPP of 43.3 mmHg (isolated myocardial tissue; 10 µM).
`C[C@H]1O[C@@H](O[C@H]2CC[C@@]3(C)[C@@H](CC[C@]4(C)[C@@H]3C=C[C@]35OC[C@@]6(CCC(C)(C)C[C@H]63)[C@@H](O)C[C@]54C)[C@]2(C)CO)[C@H](O)[C@@H](O[C@@H]2O[C@H](CO)[C@@H](O)[C@H](O)[C@H]2O)[C@H]1O` gave an SIRT1 immunofluorescence of 25.2% and 21.8% and 28.3% (confocal immunostaining; chronic-plus-binge ethanol-fed mice, liver; dose not given, high dose).
`COc1nc(NCc2cn(-c3ccc(C(=O)Nc4ccc(C)cc4)cc3)nn2)nc(OC)n1`: “maximum non-toxic concentration” 40.2 ± 1.23 nM (MTT; normal colonocytes, rat; 72 h).
`CCN1CCN(Cc2ccc(Nc3ncc(F)c(-c4cc(F)c5nc6n(c5c4)[C@H](C)CCC6)n3)nc2)CC1`: “disease control rate” 100% (human advanced solid tumours; 400 mg, phase Ia monotherapy RECIST 1.1).
`CCOCc1nc(O)c(-c2nnc(Cc3ccc(Cl)cn3)o2)c(O)c1-c1c(OC)cccc1OC` gave an MAP change of -2.1 ± 0.6% (instrumented anaesthetised rat; intravenous infusion, 100 µg/kg/min for 15 min, 15 min; relative to: baseline).
`c1ccc(-c2n[nH]cc2-c2ccnc3ccccc23)nc1` — result for “log2 fold change”: 1.48 (kinase binding, competitor, MIB/MS competition, item: RIM8; Candida albicans cell lysate; 1 µM; relative to: DMSO).
For `O=C(O)CNC(=O)Cc1ccccc1`, the sarcomere length was 1.72 µm (ventricular cardiomyocytes, C57BL/6 mouse; dose not given, 0.048 s).
`Cc1cc(C)c(CNC(=O)c2cc(Cl)c3c(c2C)O[C@@](C)([C@H]2CC[C@H](N(C)C)CC2)O3)c(=O)[nH]1`: “best overall response PR” 36% (modified 2009 ATLL criteria; human, relapsed/refractory adult T-cell leukaemia-lymphoma; dose not given).
Under “tumour volume difference”, `C=CCn1c(=O)c2cnc(Nc3ccc(N4CCN(C)CC4)cc3)nc2n1-c1ccc2c(n1)[C@@](O)(CC)CC2` is recorded as 458 ± 13.3 mm3 (LNCaP xenograft, BALB/c nude mice; oral, 80 mg/kg once daily x 21, day 22).
`CC#Cc1cncc(-c2ccc3c(c2)[C@@]2(N=C(C)C(N)=N2)[C@]2(CC[C@H](OC)CC2)C3)c1` has a reduction of 88% (item: Aβ40; C57BL/6 mice, plasma; oral, 50, 100 or 200 µmol/kg single, down to LLOQ).
`Cc1cc([C@H]2C[C@H]3[C@@H](CF)SC(N)=N[C@@]3(c3ccc(F)cc3F)CO2)on1` has an Aβ42 level of 0.72 ng/g (item: Aβx-42; Mus musculus wild-type, brain; subcutaneous, 30 mg/kg, 14 h).
`COc1ncnn2ccc(-c3cnc4nc(C)n(Cc5nnc([C@@H](C)F)o5)c4c3)c12`: “overall response rate” 42.9% (Homo sapiens, relapsed or refractory AML or MDS; dose not given, CR, CRi, mCR, MLFS or PR).
The sarcomere length of `CC(C)NCC(O)c1ccc(O)c(O)c1` (stereo not drawn) is reported as 1.55 µm (ventricular cardiomyocytes, C57BL/6 mouse; dose not given, 0.236 s).
`CC(C)(C)c1cc(C(C)(C)C)c(NC(=O)c2c[nH]c3ccccc3c2=O)cc1O` — result for contraction AUC: “no effect” (rat colon ex vivo; 1 nM to 10 µM).
Under “percent change from baseline”, `C[C@H]1C[C@H]2CSC(N)=N[C@@]2(c2nc(NC(=O)c3ccc(OC(F)F)cn3)cs2)CO1` is recorded as -58.1% (item: total Aβ; healthy adults, plasma; 125 mg once daily, day 4; relative to: placebo).
For `C[C@@H]1CCC[C@H](n2cnc(-c3cc(Cl)ccc3-n3cc(Cl)nn3)cc2=O)c2cc(ccn2)-c2c(cnn2C(F)F)NC1=O`, “concentration for aPTT prolongation” read 7.5 µM (dog plasma; IC2.5× aPTT, STA-PTT reagent).
`CSCCNc1nc(SCCC(F)(F)F)nc2c1ncn2[C@@H]1O[C@H](COP(=O)(O)OP(=O)(O)C(Cl)(Cl)P(=O)(O)O)[C@@H](O)[C@H]1O` has an inhibition of 15.6 ± 14.5% (platelet aggregation, light transmission aggregometry; human patients, platelet-rich plasma; dose not given, 30 min, with: TRAP 15 µM).
`C[C@@H](NC(=O)N1C(=O)[C@H](Cc2ccnc(N)c2)[C@H]1C(=O)O)C1CCCCC1` — result for “time to maximum PT over baseline”: 5 h (human, plasma; continuous intravenous infusion, 2.25 mg/kg/h, days 1 to 6 of 5-day infusion, median; relative to: baseline).
With `O=C(O)CCC(=O)O.[2H]C([2H])([2H])Oc1cc(C)c2[nH]ccc2c1CN1CC[C@@H](C2CC2)C[C@H]1c1ccc(C(=O)O)cc1` the trough inhibition was over 90% (alternative complement pathway activity, Wieslab ELISA; human, serum; 125 mg twice daily, multiple ascending dose).
`FC(F)(F)Oc1cccc(-c2ccnc3[nH]c(C(F)(F)F)nc23)c1` — result for liver weight: “no effect” (GAN diet MASH mice; 300 mg/kg, 31 days; relative to: GAN control).
For `CCN1[C@@H](C(=O)NC23CCC(C(=O)O)(CC2)CC3)[C@H](c2cccc(Cl)c2F)[C@]2(C(=O)Nc3cc(Cl)ccc32)C12CCCCC2`, “median progression-free survival” read 2.3 months (human, advanced solid tumours, TP53 mutant; dose not given).
`NC(=O)c1cnc2[nH]ccc2c1N[C@@H]1[C@@H]2CC3C[C@H]1C[C@@](O)(C3)C2`: “change from baseline” -1.02% (flow cytometry, item: CD4+ memory T cells; Japanese healthy subjects, peripheral blood; oral, 30 mg twice daily, day 4).
With `CCCCC1(CCCC)CN(c2ccccc2)c2cc(SC)c(OCC(=O)N[C@@H](C(=O)NCC(=O)O)c3ccccc3)cc2S(=O)(=O)C1` the plasma C4 was 71.8 ng/mL (item: 7α-hydroxy-4-cholesten-3-one; human, plasma; 15 mg once daily, day 7).
For `N#Cc1ccc2c(-c3ccncc3)c(-c3ccc(F)cc3)nn2c1`, “log2 fold change” read -0.3 (kinase binding, competitor, MIB/MS competition, item: ATG1; Candida albicans cell lysate; 10 µM; relative to: DMSO).
`O=C(COc1ccc(Cl)cc1)NC12CC(c3nnc([C@H]4C[C@@H](OC(F)(F)F)C4)o3)(C1)C2`: “protein level change” -79.1% (item: ATF4; PBMC ex vivo stimulated, human ALS patients; 200 mg, D28 predose; relative to: baseline).
With `Cc1cc([C@H]2C[C@H]3[C@@H](C)SC(N)=N[C@@]3(c3ccc(F)cc3F)CO2)on1` the Aβ42 level was 0.36 ng/g (item: Aβx-42; Mus musculus wild-type, brain; subcutaneous, 50 mg/kg, 18 h).
`N=C(N)NCCC[C@H](NC(=O)[C@H](CCCNC(=N)N)NC(=O)[C@H](CCCCN)NC(=O)[C@H](CCC(N)=O)NC(=O)[C@H](CCCCN)NC(=O)[C@H](Cc1ccc(O)cc1)NC(=O)[C@@H](N)CCCCN)C(=O)N[C@@H](CO)C(=O)N[C@@H](Cc1ccc(O)cc1)C(=O)N[C@@H](CCCCN)C(=O)O`: “change from baseline in VAS score” -27.8 ± 21.2 (human, dentin hypersensitivity patients, male; topical to tooth, 10 µg/tooth, day 36, phase trial; direction not given).
For `N#Cc1ccn2c(-c3ccncc3)c(-c3ccc(F)cc3)nc2c1`, “log2 fold change” read -0.53 (kinase binding, competitor, MIB/MS competition, item: HSL1; Candida albicans cell lysate; 10 µM; relative to: DMSO).
`CC(C)c1c(C(=O)Nc2ccccc2)c(-c2ccccc2)c(-c2ccc(F)cc2)n1CC[C@@H](O)C[C@@H](O)CC(=O)O` has an LDL-C of 53.3 mg/dL (cynomolgus monkey, male, serum; 40 mg/kg or 25 mg/kg, day 176, 4224 h).
`COc1nc(NCc2cn(-c3ccc(NC(=O)c4ccc(F)cc4)cc3)nn2)nc(OC)n1`: “maximum non-toxic concentration” 1.4 ± 0.13 nM (MTT; normal colonocytes, rat; 72 h).
`CC[C@@H](C)[C@@H](NC(=O)[C@@H](Cc1ccc(O)cc1)NC(=O)[C@H]1CCCN1C(=O)[C@@H](CCCNC(=N)N)NC(=O)[C@H](N)Cc1c[nH]cn1)C(=O)N[C@H](C)C(=O)N[C@H](Cc1c[nH]cn1)C(=O)N[C@H](CCCNC(=N)N)C(=O)N[C@@H](C(=O)N[C@H](Cc1ccc(O)cc1)C(=O)N[C@H](CO)C(=O)N[C@H](Cc1ccccc1)C(N)=O)C(C)C`: “IFN-γ+ CD8+ T cell frequency” 7.47% and 6.04% and 8.44% (ex vivo flow cytometry; GL261-Luc brain tumour mice, tumour; dose not given).
